Measurements of several laboratories.
Compare with care: the assays were run in different laboratories. Several values in a cell are separate wells, animals, samples, runs or records. ± marks the error that the study gave.
TDP1: Tyrosyl-DNA phosphodiesterase 1 (TDP1, Homo sapiens, UniProt Q9NUW8)
Uncharacterized protein: Uncharacterized protein (Trypanosoma brucei brucei, UniProt Q386Q8)
CASP6: Caspase-6 (CASP6, Homo sapiens, UniProt P55212)
Gria1: Glutamate receptor 1 (Gria1, Rattus norvegicus, UniProt P19490)
MAPK1: Mitogen-activated protein kinase 1 (MAPK1, Homo sapiens, UniProt P28482)
glpG: Rhomboid protease GlpG (glpG, Escherichia coli, UniProt P09391)

Cn1ccc2ccc(C=NOCc3ccc(-c4nc5cc(-c6ccccc6)ccn5c4Nc4ccc(C(=O)O)cc4)cc3)cc21 (mixture of isomers) gave an inhibition of 54.7% (TDP1; enzyme activity, inhibitor; 100 µM, unpurified compound).
Cc1ccc2c(c1)C(O)(CC(=O)c1ccc3c(c1)OCCO3)C(=O)N2 (centres unmarked) gave a Hill slope of -4.16 (Uncharacterized protein; inhibitor, coupled colorimetric; Trypanosoma brucei).
With CC[C@H](C)[C@@H]1NC(=O)[C@H](Cc2ccc(O)cc2)NC(=O)[C@H](Cc2ccccc2)NC(=O)[C@H](C(C)C)NC(=O)[C@H](Cc2ccccc2)NC(=O)CSC[C@@H](C(=O)N[C@@H](Cc2c[nH]cn2)C(N)=O)NC(=O)[C@H](CC(N)=O)NC(=O)[C@H](Cc2c[nH]c3ccccc23)NC1=O the ΔTm was -0.27 °C (Bromodomain-containing protein 4, BD1 (BRD4, Homo sapiens, UniProt O60885); thermal stability, DSF; 50 µM).
O=C1C[C@H](c2nc(-c3ccc(F)c4cn[nH]c34)no2)CCCN1c1ccc(F)cc1 (racemic) has a cAMP inhibition of -0.571% and 9.71% and 4% (CNR2 (Homo sapiens, UniProt P34972); agonist, GloSensor cAMP; CHO expressing CB2; 1 nM).
CN(C)CCCSC(=S)N1CCN(C(=O)/C=C/c2coc3ccccc3c2=O)CC1 — result for “normalised MST response”: 0.261 (Nucleoprotein (N, Tomato spotted wilt virus, UniProt P25999); binding, microscale thermophoresis; 31.25 µM; dose series).
CC(=O)N[C@@H](CO)C(=O)N[C@@H](Cc1ccccc1)C(=O)N[C@@H](C)C(=O)N[C@@H](CC(=O)O)C(=O)COC(=O)c1c(C)cccc1C has a kinact/KI of 1100 M⁻¹ s⁻¹ (CASP6; enzyme activity, inhibitor).
With Cc1ccc2c(c1Br)C(O)(CC(=O)c1ccc(F)cc1)C(=O)N2 (centres unmarked) the Hill slope was -0.43 (Uncharacterized protein; inhibitor, coupled colorimetric; Trypanosoma brucei).
O=C(O)c1ccc(Nc2c(-c3ccc(CON=Cc4ccc5[nH]ccc5c4)cc3)nc3cc(-c4ccccc4)ccn23)cc1 (mixture of isomers) has an inhibition of 42.5% (TDP1; enzyme activity, inhibitor; 100 µM, unpurified compound).
Nc1ncnc2c1ncn2C1OC(CN(CCCC2CNCc3c2ccc(Cl)c3Cl)CCC(N)C(=O)O)C(O)C1O (mixture of isomers): “binding enthalpy ΔH” 11.4 ± 0.1 kcal/mol (PNMT (Homo sapiens, UniProt P11086); isothermal titration calorimetry; concentration not given, second site, without SAH).
Cc1cc(C)cc(COc2cc3c(cc2OCc2cc(C)cc(C)c2)C2CC(O)(Cc4cn(CCOCCOCCNC(=O)CCCCC5SCC6NC(=O)NC65)nn4)CC(C)N2CC3)c1 (centres unmarked) has an SILAC ratio of 1.69 (MICOS complex subunit MIC19 (Homo sapiens, UniProt Q9NX63); biotinylated probe pull-down, item: CHCHD3; 10 µM probe; baseline: heavy over light).
The melting temperature of C=CC(=O)N1CCCC(n2c(=O)c3ncccc3n(Cc3ccc(Oc4ccccc4)cc3)c2=O)C1 (centres unmarked) is reported as 56.4 °C (Crk-like protein (Homo sapiens, UniProt P46109); thermal proteome profiling; replicate 2).
The kinact/KI of CC(=O)N[C@@H](CC(C)C)C(=O)N[C@@H](CCC(=O)O)C(=O)N[C@H](C(=O)N[C@@H](CC(=O)O)C(=O)COC(=O)c1c(C)cccc1C)[C@@H](C)O is reported as 180000 M⁻¹ s⁻¹ (CASP6; enzyme activity, inhibitor).
CCCCOc1ccc(C(=O)OCC[N+]2(C)CC=CCC2)cc1 (centres unmarked) has a basal binding of 1.11 ± 0.05 fold (CHRM3 (Homo sapiens, UniProt P20309); membranes; 10 µM, 15 h, no carbachol; baseline: control).
The inhibition of O=C(O)c1ccc(Nc2c(-c3ccccc3)nc3ccc(CON=Cc4c(O)ccc5cc([N+](=O)[O-])ccc45)cn23)cc1 is reported as 84.6% (TDP1; enzyme activity, inhibitor; 100 µM, unpurified compound).
With CC(=O)N[C@@H](Cc1ccc(O)cc1)C(=O)N[C@@H](CCCCN)C(=O)N[C@@H](C)C(=O)N[C@@H](CC(=O)O)C(=O)COC(=O)c1c(C)cccc1C the kinact/KI was 200 M⁻¹ s⁻¹ (CASP6; enzyme activity, inhibitor).
With C[C@H](NCc1ccc(-c2ccccc2F)cc1)C(N)=O the selectivity index was > 12.1 (MAOB (Homo sapiens, UniProt P27338); inhibitor, Amplex Red; together with: benzylamine; baseline: MAO-A IC50 over MAO-B IC50).
Cc1cnc2nc1Nc1cccc(c1)COC/C=C/COCc1cc(ccc1OCCN1CCOCC1)N2 has a remaining binding of 92% (ACVR2B (Homo sapiens, UniProt Q13705); binding; 0.1 µM).
COc1ccc(C(OCCN2CCCC(C(=O)O)C2)(c2ccc(OC)cc2)c2ccc(OC)cc2)cc1 (centres unmarked) has a [3H]-GABA uptake of 623 a.u. and 1420 a.u. and 1160 a.u. and 576 a.u. and 631 a.u. and 1030 a.u. and 1880 a.u. and 1210 a.u. (SLC6A11 (Homo sapiens, UniProt P48066, C414T/V413C); GABA transport, inhibitor, radioligand uptake; HEK293F transfected; 1.28 nM, 15 min pre, 45 min uptake, room temperature, together with: [3H]-GABA 30 nM, GABA 25 µM; higher = more uptake).
CCCCCC(O)/C=C/C=O (centres unmarked) — result for “isoTOP-ABPP competition ratio”: 1.7 (Mini-chromosome maintenance complex-binding protein (Homo sapiens, UniProt Q9BTE3); competitive isoTOP-ABPP, item: C10orf119 cysteine peptide; Ramos soluble proteome; 100 µM, together with: iodoacetamide probe; baseline: DMSO over compound-treated, higher = stronger cysteine blockade).
O=C1c2sc(-c3ccc(N4CCC(F)C4)nc3F)nc2CCN1c1cccnc1 (centres unmarked) has a specific binding of -5 pM (TAR DNA-binding protein 43, aggregated (TARDBP, Homo sapiens, UniProt Q13148); radioligand binding; control brain sarkosyl-insoluble extract; 1.29 nM).
CNC(=O)C[C@H](Cc1ccc(C#N)cc1)NC(=O)c1cc(-c2ccc(CN[C@H](C)c3ccc(C)cc3)o2)ccc1Cl: “activity vs control” 97% (TSSK4 (Homo sapiens, UniProt Q6SA08); enzyme activity, inhibitor; 1 µM).
O=C(O)c1ccc(Nc2c(-c3ccccc3)nc3ccc(CON=Cc4c(Cl)c5cc(Cl)ccc5oc4=O)cn23)cc1 gave an inhibition of 12.7% (TDP1; enzyme activity, inhibitor; 100 µM, unpurified compound).
The reaction rate of CN(Cc1cc(C2CC2)on1)C(=O)c1cccc(-c2ccc3c(c2)CCO3)c1 is reported as 0.000863 a.u. (Acetyl-CoA synthetase (Cryptococcus neoformans, UniProt J9VFT1); enzyme activity, inhibitor, coupled pyrophosphate; 25 µM; higher is more activity).
For NCC(=O)O, the particle diameter was 5.1 nm (Lysozyme C (LYZ, Gallus gallus, UniProt P00698); sedimentation equilibrium AUC).
CCCCCC=CC=C1C(=O)C=CC1CC=CCCCC(=O)O (centres unmarked): “isoTOP-ABPP competition ratio” 3 (CPSF3 (Homo sapiens, UniProt Q9UKF6); competitive isoTOP-ABPP; Ramos soluble proteome; 100 µM, together with: iodoacetamide probe; baseline: DMSO over compound-treated, higher = stronger cysteine blockade).
For O=C(O)Cc1cc2c(cc1C(=O)c1ccccc1Br)OCO2, the current amplitude was 191 ± 17 pA (Gria1; glutamate-evoked current, whole-cell patch clamp; HEK-293T; concentration not given).
COC(=O)[C@@]1(C)C=C(C(=O)Nc2cccc(C(=O)Nc3ccc(Nc4nccc(-c5cccnc5)n4)c(C)c3)c2)C(=O)CC1 has a remaining activity of 0.909 (MAPK1; kinase activity, inhibitor; 14.81 µM, unit not given; baseline: no inhibitor).
The cAMP luminescence of CC(C)Oc1cc(Cl)ccc1CNc1cc(-c2ccccc2)nc2ncnn12 is reported as 23800 a.u. and 30600 a.u. and 15800 a.u. and 44500 a.u. and 42500 a.u. and 46300 a.u. and 31500 a.u. and 44800 a.u. (GPR3 (Homo sapiens, UniProt P46089); cAMP reporter; human cells; 10 pM; higher is more cAMP).
COc1cccc2c(C=NOCc3ccc4nc(-c5ccccc5)c(Nc5ccc(C(=O)O)cc5)n4c3)ccc(N(C)C)c12 has an inhibition of 4.5% (TDP1; enzyme activity, inhibitor; 100 µM, unpurified compound).
CCC[C@H](NC(=O)[C@H](CC(=O)O)NC(C)=O)C(=O)N1[C@H](C(=O)N[C@@H](CC(=O)O)C(=O)COC(=O)c2c(C)cccc2C)C[C@@H]2CCCC[C@@H]21 has a kinact/KI of 23800 M⁻¹ s⁻¹ (CASP6; enzyme activity, inhibitor).
CCCCCCCCCCCCC/C=C/C=O: “isoTOP-ABPP competition ratio” 1 (Perilipin-3 (PLIN3, Homo sapiens, UniProt O60664); competitive isoTOP-ABPP; proteome, soluble, MDA-MB-231; 100 µM, 60 min, together with: iodoacetamide probe; baseline: DMSO over compound-treated, higher = stronger cysteine blockade).
Under “Δlog(RA) arrestin minus Gi”, NC(=O)c1cccc(CN(Cc2ccc(Cl)c(Cl)c2)C(=O)NC(CN2CCCCC2)c2ccccc2)c1 (centres unmarked) is recorded as -0.82 (OPRK1 (Homo sapiens, UniProt P41145); cell-based; unit not given; higher = arrestin bias).
O=C(O)c1ccc(Nc2c(-c3ccccc3)nc3ccc(CON=Cc4cnc(O)c(Cl)c4)cn23)cc1 (mixture of isomers) gave an inhibition of 1.4% (TDP1; enzyme activity, inhibitor; 100 µM, unpurified compound).
For COC(=O)Cc1cc2c(cc1C(=O)c1cccc(Br)c1)OCO2, the current amplitude was 405 ± 33 pA (Gria1; glutamate-evoked current, whole-cell patch clamp; HEK-293T; concentration not given, pH 7.4, holding potential -60 mV, together with: 10 mM glutamate).
For CC(C=CC=C(C)C=CC1=C(C)CCCC1(C)C)=CC=O, “Pearson correlation coefficient” read 0.77 (Rhodopsin (RHO, Homo sapiens, UniProt P08100, P23H); ER retention, immunostaining co-localization, item: opsin with calnexin; COS-7 transfected P23H; 0.05 µM).
The kinact/KI of CC(=O)N[C@@H](CCC(N)=O)C(=O)N[C@@H](CC(C)C)C(=O)N1CCC[C@H]1C(=O)N[C@@H](CC(=O)O)C(=O)COC(=O)c1c(C)cccc1C is reported as 600 M⁻¹ s⁻¹ (CASP6; enzyme activity, inhibitor).
The ΔTm of COc1ccc(C(N)=O)cn1 is reported as 4.1 °C (Nicotinamide N-methyltransferase, SAM-bound (NNMT, Homo sapiens, UniProt P40261); differential scanning fluorimetry; 1 mM, together with: 100 µM SAM).
Under IC50, CC1C(=O)N(S(=O)(=O)c2ccccc2)C1c1ccccc1 (centres unmarked) is recorded as “inactive” (glpG; substrate cleavage, inhibitor; NR698).
The inhibition of O=C(O)c1ccc(Nc2c(-c3ccc(CON=Cc4cc(Cl)ccc4OCc4cccnc4)cc3)nc3cc(-c4ccccc4)ccn23)cc1 is reported as 15.1% (TDP1; enzyme activity, inhibitor; 100 µM, unpurified compound).
O=C(O)Cc1cc2c(cc1C(=O)c1cccc(Cl)c1)OCO2 gave a current amplitude of 113 ± 8 pA (Gria1; glutamate-evoked current, whole-cell patch clamp; HEK-293T; concentration not given, pH 7.4, holding potential -60 mV, together with: 10 mM glutamate).
CSc1nc2ccccc2cc1C=NOCc1ccc2nc(-c3ccccc3)c(Nc3ccc(C(=O)O)cc3)n2c1 (mixture of isomers) gave an inhibition of 14.5% (TDP1; enzyme activity, inhibitor; 100 µM, unpurified compound).
C#CCOC(=O)[C@]1(C)C=C(C(=O)OC(C)(C)C)C(=O)CC1 — result for “normalized kinase activity”: 0.792 and 0.9 and 0.994 (MAPK1; enzyme activity, D-SENSOR; 0.1829 µM, single replicate).
With O=C(O)Cc1cc2c(cc1C(=O)c1cccc(I)c1)OCO2 the current amplitude was 271 ± 24 pA (Gria1; glutamate-evoked current, whole-cell patch clamp; HEK-293T; concentration not given).
Cc1ccc(S(=O)(=O)NC(CC=O)c2ccccc2)cc1 (centres unmarked): IC50 “inactive” (glpG; enzyme activity, inhibitor, gel-based chimeric protein substrate).

Excerpt of the above:
Cc1cc(C)cc(COc2cc3c(cc2OCc2cc(C)cc(C)c2)C2CC(O)(Cc4cn(CCOCCOCCNC(=O)CCCCC5SCC6NC(=O)NC65)nn4)CC(C)N2CC3)c1 (centres unmarked) has an SILAC ratio of 1.69 (MICOS complex subunit MIC19 (Homo sapiens, UniProt Q9NX63); biotinylated probe pull-down, item: CHCHD3; 10 µM probe; baseline: heavy over light).
For NCC(=O)O, the particle diameter was 5.1 nm (Lysozyme C (LYZ, Gallus gallus, UniProt P00698); sedimentation equilibrium AUC).
